# Measured values from different studies.
# Several values in a cell are separate wells, animals, samples, runs or records. ± gives the spread as reported.
# USP33 ZnF-UBD domain: Ubiquitin carboxyl-terminal hydrolase 33, ZnF-UBD domain (USP33, Homo sapiens, UniProt Q8TEY7)
# Chain of UniProt Q16774 (whole entry, unmodified, looked up): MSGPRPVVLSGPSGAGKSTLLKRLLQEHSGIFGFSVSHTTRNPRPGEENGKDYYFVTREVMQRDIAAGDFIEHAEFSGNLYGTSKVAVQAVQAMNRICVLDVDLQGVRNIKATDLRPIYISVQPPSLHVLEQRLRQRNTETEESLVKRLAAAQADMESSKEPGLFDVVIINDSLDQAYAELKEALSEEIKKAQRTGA
# Chain of UniProt Q8TEY7 (whole entry, looked up): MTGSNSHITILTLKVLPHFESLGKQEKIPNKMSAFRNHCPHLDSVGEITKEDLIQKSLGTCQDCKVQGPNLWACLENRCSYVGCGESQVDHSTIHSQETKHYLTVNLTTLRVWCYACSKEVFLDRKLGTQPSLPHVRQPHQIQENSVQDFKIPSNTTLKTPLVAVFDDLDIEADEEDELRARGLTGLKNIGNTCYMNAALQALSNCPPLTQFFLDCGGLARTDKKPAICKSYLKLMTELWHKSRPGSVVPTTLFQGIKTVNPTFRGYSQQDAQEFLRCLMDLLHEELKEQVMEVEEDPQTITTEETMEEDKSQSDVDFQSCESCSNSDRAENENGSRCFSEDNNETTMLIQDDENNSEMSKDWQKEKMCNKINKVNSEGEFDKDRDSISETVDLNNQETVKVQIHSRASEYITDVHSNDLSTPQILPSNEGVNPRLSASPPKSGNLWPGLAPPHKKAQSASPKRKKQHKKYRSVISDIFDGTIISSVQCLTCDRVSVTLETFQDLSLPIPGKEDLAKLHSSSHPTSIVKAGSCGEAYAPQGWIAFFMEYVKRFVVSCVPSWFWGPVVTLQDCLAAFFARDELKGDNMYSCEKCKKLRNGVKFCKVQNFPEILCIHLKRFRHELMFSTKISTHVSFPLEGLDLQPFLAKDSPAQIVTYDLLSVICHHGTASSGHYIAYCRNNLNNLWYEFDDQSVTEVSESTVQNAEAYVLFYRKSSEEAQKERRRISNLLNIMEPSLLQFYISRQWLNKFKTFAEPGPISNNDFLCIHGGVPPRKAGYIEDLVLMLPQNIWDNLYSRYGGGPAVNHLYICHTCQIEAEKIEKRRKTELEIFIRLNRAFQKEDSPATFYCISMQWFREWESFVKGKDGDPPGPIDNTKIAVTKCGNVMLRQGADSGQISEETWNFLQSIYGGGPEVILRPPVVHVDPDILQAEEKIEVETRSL
# Chain of UniProt P22748 (whole entry, looked up): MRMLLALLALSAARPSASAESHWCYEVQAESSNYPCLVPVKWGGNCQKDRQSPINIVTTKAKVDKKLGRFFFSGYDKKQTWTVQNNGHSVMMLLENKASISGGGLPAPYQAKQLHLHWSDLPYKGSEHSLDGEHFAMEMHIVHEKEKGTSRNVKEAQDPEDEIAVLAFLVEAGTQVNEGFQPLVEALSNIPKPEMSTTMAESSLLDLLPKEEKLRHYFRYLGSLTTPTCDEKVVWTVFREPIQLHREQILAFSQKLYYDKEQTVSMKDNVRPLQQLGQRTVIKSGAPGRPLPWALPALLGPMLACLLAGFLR
# Chain of UniProt O75030 (1-296, looked up): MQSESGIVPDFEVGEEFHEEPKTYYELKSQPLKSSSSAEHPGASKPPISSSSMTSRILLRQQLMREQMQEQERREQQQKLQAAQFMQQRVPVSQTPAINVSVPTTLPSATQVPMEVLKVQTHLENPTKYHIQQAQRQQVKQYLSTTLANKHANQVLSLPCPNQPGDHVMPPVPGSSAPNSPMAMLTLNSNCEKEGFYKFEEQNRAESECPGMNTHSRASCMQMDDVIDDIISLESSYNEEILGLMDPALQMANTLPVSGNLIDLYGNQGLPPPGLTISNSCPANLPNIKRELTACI
# Chain of UniProt P17342 (whole entry, looked up): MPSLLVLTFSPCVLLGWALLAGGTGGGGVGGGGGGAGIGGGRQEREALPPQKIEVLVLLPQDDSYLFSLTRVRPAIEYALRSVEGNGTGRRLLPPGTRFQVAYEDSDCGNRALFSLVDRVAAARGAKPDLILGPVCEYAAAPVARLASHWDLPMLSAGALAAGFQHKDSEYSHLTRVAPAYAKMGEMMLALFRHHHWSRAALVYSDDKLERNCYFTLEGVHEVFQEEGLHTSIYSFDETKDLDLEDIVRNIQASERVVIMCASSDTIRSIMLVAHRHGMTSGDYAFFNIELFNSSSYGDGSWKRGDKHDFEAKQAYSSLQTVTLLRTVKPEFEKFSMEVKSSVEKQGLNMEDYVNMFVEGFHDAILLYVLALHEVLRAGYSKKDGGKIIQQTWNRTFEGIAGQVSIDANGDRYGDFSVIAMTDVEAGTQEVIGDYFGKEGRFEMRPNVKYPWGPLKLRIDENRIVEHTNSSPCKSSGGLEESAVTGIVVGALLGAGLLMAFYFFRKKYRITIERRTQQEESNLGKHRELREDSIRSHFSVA
# Chain of UniProt Q8IZW8 (whole entry, looked up): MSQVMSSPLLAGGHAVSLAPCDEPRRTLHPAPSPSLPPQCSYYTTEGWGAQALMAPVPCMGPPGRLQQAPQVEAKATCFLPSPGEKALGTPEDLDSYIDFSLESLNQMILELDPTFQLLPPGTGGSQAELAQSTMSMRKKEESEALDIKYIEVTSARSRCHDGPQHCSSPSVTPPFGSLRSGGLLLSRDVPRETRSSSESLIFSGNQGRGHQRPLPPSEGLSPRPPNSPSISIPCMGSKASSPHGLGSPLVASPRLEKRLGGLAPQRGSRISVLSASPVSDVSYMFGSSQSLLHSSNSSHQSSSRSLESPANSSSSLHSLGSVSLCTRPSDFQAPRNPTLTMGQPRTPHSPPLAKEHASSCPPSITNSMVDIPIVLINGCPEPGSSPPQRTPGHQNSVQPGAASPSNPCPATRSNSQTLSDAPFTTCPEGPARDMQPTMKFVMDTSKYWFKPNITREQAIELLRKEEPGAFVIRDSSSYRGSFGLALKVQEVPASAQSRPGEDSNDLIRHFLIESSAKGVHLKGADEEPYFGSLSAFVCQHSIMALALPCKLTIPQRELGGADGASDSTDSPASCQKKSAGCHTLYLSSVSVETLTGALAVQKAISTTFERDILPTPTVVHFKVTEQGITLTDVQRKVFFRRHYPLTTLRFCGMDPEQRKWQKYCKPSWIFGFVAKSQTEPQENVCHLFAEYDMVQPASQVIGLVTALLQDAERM
# Chain of UniProt P08185 (whole entry, looked up): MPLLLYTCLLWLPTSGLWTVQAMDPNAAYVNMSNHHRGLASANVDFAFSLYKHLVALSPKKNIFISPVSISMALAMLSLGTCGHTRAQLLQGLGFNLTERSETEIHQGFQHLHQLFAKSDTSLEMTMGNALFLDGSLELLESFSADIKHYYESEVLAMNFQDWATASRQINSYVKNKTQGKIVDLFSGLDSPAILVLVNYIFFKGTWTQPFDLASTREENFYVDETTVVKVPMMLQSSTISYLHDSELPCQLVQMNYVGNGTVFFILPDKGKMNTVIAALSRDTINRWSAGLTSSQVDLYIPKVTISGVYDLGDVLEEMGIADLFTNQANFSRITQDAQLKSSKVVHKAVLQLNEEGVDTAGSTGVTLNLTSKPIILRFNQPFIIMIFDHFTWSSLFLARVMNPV
# Chain of UniProt Q9NZQ7 (whole entry, looked up): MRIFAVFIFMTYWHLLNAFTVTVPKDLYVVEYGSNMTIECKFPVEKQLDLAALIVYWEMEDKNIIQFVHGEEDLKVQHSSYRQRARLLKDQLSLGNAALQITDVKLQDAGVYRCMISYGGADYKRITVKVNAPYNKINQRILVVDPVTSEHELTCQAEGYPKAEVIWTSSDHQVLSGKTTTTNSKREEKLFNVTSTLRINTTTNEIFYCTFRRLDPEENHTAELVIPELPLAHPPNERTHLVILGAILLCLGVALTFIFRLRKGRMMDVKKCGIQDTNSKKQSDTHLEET
# Chain of UniProt P39146 (whole entry, unmodified, looked up): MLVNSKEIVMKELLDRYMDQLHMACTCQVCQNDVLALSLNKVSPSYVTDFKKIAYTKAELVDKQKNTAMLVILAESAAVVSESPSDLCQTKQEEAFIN
# Chain of UniProt P31641 (whole entry, unmodified, looked up): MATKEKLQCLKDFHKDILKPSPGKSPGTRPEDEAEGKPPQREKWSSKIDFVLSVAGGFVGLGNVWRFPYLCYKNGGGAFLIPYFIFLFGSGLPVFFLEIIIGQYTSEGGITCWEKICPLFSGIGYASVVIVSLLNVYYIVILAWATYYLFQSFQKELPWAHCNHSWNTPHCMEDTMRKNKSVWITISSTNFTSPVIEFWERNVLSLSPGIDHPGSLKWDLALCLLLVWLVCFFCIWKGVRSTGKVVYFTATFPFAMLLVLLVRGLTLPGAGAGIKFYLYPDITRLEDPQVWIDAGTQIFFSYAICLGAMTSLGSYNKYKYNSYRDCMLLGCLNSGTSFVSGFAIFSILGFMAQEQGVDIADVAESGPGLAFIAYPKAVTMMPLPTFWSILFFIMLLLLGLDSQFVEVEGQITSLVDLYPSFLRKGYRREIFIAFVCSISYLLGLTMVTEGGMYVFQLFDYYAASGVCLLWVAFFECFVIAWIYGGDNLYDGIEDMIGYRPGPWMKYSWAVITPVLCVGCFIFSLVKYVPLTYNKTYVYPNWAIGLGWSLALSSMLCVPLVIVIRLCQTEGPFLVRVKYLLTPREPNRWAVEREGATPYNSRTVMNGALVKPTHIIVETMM
SMILES,target,test,test system,conditions,Kd
NS(=O)(=O)c1ccc(NCC(=O)O)cc1,USP33 ZnF-UBD domain,,,,> 1000 µM
NCC(=O)O,"Uncharacterized protein (Pelagibacter ubique, UniProt Q4FM26)",isothermal titration calorimetry,Candidatus Pelagibacter ubique,direct titration,0.026 ± 0.005 µM
OC[C@H]1O[C@H](O[C@H]2[C@H](O)[C@@H](O)[C@@H](O[C@H]3[C@H](O)[C@@H](O)[C@@H](O[C@H]4[C@H](O)[C@@H](O)[C@@H](O[C@H]5[C@H](O)[C@@H](O)[C@@H](O[C@H]6[C@H](O)[C@@H](O)[C@@H](O[C@H]7[C@H](O)[C@@H](O)C(O)O[C@@H]7CO)O[C@@H]6CO)O[C@@H]5CO)O[C@@H]4CO)O[C@@H]3CO)O[C@@H]2CO)[C@H](O)[C@@H](O)[C@@H]1O (some centres unmarked),"Uncharacterized protein (Staphylococcus aureus, UniProt Q2G1E9)",isothermal titration calorimetry,,"25 °C, single-site fit",1.17 ± 0.07 µM
NC[C@@H]1O[C@H](O[C@H]2[C@@H](O)[C@H](O[C@@H]3[C@@H](O)[C@H](N)C[C@H](N)[C@H]3O[C@H]3O[C@H](CN)[C@@H](O)[C@H](O)[C@H]3N)O[C@@H]2CO)[C@H](N)[C@@H](O)[C@@H]1O,(CCUG)10 RNA,SPR,,,2.46 µM
O=C(O)CCC(=O)Nc1ccccc1,USP33 ZnF-UBD domain,,,,> 1000 µM
Nc1nc2c(ncn2[C@@H]2O[C@@H]3CO[P@](=O)(O)O[C@H]4[C@@H](O)[C@H](n5cnc6c(=O)[nH]c(N)nc65)O[C@@H]4CO[P@](=O)(O)O[C@H]3[C@H]2O)c(=O)[nH]1,"Competence protein ComFB (comFB, Bacillus subtilis, UniProt P39146, N40A)",,,,5 ± 1.66 µM
O=C(O)CNc1ccc2nncn2n1,USP33 ZnF-UBD domain,,,,> 1000 µM
CC(C)C[C@H](NC(=O)[C@H](CC(N)=O)NC(=O)[C@H](Cc1c[nH]c2ccccc12)NC(=O)[C@@H](NC(=O)[C@H](Cc1ccc(O)cc1)NC(=O)[C@H](Cc1ccc(O)cc1)NC(=O)[C@H](CO)NC(=O)[C@H](CCCNC(=N)N)NC(=O)[C@H](Cc1c[nH]cn1)NC(=O)[C@@H](N)Cc1c[nH]c2ccccc12)[C@@H](C)O)C(=O)O,"Programmed cell death 1 ligand 1, extracellular domain (CD274, Homo sapiens, UniProt Q9NZQ7)","binding, SPR",,,0.243 µM
COc1cc2oc(=O)cc(C)c2cc1CCC(=O)O,USP33 ZnF-UBD domain,,,,> 1000 µM
CON(C)C(=O)[C@H](CC(C)C)Nc1ncnc(Nc2ccc(NC(C)=O)cc2)n1,"Atrial natriuretic peptide receptor 3 (Homo sapiens, UniProt P17342)","binding, SPR",,,144 ± 7.7 µM
OC[C@H]1OC(O)[C@H](O)[C@@H](O)[C@@H]1O (some centres unmarked),"CCAAT/enhancer-binding protein alpha (CEBPA, Homo sapiens, UniProt P49715)","binding, microscale thermophoresis",,,> 2000 µM
O=C(O)c1cc2ccc(C#CC3(O)CCCCC3)cc2n1-c1cccc(Cl)c1,"Microphthalmia-associated transcription factor, residues 1-296 (Homo sapiens, UniProt O75030)","binding, isothermal titration calorimetry",,,0.46 ± 0.17 µM
Nc1ncnc2c1ncn2[C@@H]1O[C@H](COP(=O)(O)OP(=O)(O)OP(=O)(O)O)[C@@H](O)[C@H]1O,BisD (Pseudomonas knackmussii),"binding, isothermal titration calorimetry",,,~13 µM
CC[C@H](C)[C@H](NC(=O)[C@H](CC(C)C)NC(=O)[C@H](Cc1ccc(OP(=O)(O)O)cc1)NC(=O)[C@H](CCC(=O)O)NC(=O)[C@H](CC(=O)O)NC(=O)[C@H](C)NC(=O)[C@H](CC(=O)O)NC(=O)[C@@H](NC(=O)[C@@H](NC(=O)[C@H](CC(=O)O)NC(=O)[C@H](CC(=O)O)NC(=O)[C@H](CCSC)NC(=O)c1ccc2c(c1)C(=O)OC21c2ccc(N(C)C)cc2Oc2cc(N(C)C)ccc21)C(C)C)C(C)C)C(=O)N1CCC[C@H]1C(=O)N[C@@H](CCC(N)=O)C(=O)N[C@@H](CCC(N)=O)C(=O)NCC(=O)N[C@@H](Cc1ccccc1)C(=O)N[C@@H](CC(=O)O)C(=O)O,"Tensin-4, SH2 domain (Homo sapiens, UniProt Q8IZW8)",binding,,,0.922 µM
CSc1nc(C)c(CCC(=O)O)c(=O)[nH]1,USP33 ZnF-UBD domain,,,,211 µM
Nc1ncnc2c1ncn2[C@@H]1O[C@H](COP(=O)(O)OP(=O)(O)OP(=O)(O)O)[C@@H](O)[C@H]1O,"CKMT1A (Homo sapiens, UniProt P12532, H99A)",microscale thermophoresis,,"pH 8.5, H61A mutant, no substrate",18 ± 7 µM
Nc1nc2c(ncn2[C@@H]2O[C@H](COP(=O)(O)O)[C@@H](O)[C@H]2O)c(=O)[nH]1,"GUK1 (Homo sapiens, UniProt Q16774, E72A)","binding, ITC",,"25 °C, with: GMP",> 500 µM
N[C@@H](CO)C(=O)O,"Uncharacterized protein (Pelagibacter ubique, UniProt Q4FM26)",isothermal titration calorimetry,Candidatus Pelagibacter ubique,direct titration,0.0064 µM
OC[C@H]1O[C@H](O[C@H]2[C@H](O)[C@@H](O)[C@@H](O[C@H]3[C@H](O)[C@@H](O)C(O)O[C@@H]3CO)O[C@@H]2CO)[C@H](O)[C@@H](O)[C@@H]1O (some centres unmarked),"Uncharacterized protein (Staphylococcus aureus, UniProt Q2G1E9)",isothermal titration calorimetry,,"25 °C, single-site fit",3.19 ± 0.42 µM
Nc1ccn([C@@H]2O[C@H](COP(=O)(O)OP(=O)(O)OP(=O)(O)O)[C@@H](O)[C@H]2O)c(=O)n1,BisD Pseudomonas knackmussii,ITC,,,~2 µM
CC(=O)NC1C(O)CC(OC(CO)C(O)C2OC(OC3C(O)C(CO)OC(OC4C(CO)OC(Oc5ccc(N)cc5)C(O)C4O)C3O)(C(=O)O)CC(O)C2NC(C)=O)(C(=O)O)OC1C(O)C(O)COC(C)=O (centres unmarked),"Spike glycoprotein, D1 domain (S, Human coronavirus HKU1, UniProt Q5MQD0)",surface plasmon resonance,PBS,,5.1 ± 0.3 µM
Nc1ncnc2c1ncn2[C@@H]1O[C@H](COP(=O)(O)OP(=O)(O)O)[C@@H](O)[C@H]1O,"GUK1, part: GMP-bound (Homo sapiens, UniProt Q16774)","binding, ITC",,with: ATPγS and GMP 0.5 mM,13.9 µM and 17.3 µM and 11.8 µM
Cc1sc2ncn(CC(=O)O)c(=O)c2c1C,USP33 ZnF-UBD domain,,,,> 1000 µM
C[C@]12CCC(=O)C=C1CC[C@@H]1[C@@H]2[C@@H](O)C[C@@]2(C)[C@H]1CC[C@]2(O)C(=O)CO,"SERPINA6 (Homo sapiens, UniProt P08185)","binding, ultrafiltration, LC-MS/MS","diabetic patients, plasma","37 °C, 10% CO2, typical BMI and HbA1c",0.0151 µM
N[C@@H](CCC(=O)O)C(=O)O,"Uncharacterized protein (Pelagibacter ubique, UniProt Q4FM26)",isothermal titration calorimetry,Candidatus Pelagibacter ubique,direct titration,< 0.005 µM
O=C(O)CCc1cnccn1,USP33 ZnF-UBD domain,,,,> 1000 µM
NS(=O)(=O)c1ccccc1,"CA4 (Homo sapiens, UniProt P22748)",binding,,,5.56 µM and 5.6 µM
O=C(O)CCc1nccs1,USP33 ZnF-UBD domain,,,,808 µM
NCCCC(=O)O,"SLC6A6 (Homo sapiens, UniProt P31641, E406A)",microscale thermophoresis,,E406A mutant,139 ± 43.1 µM

# Excerpt of the above:
SMILES,target,test,test system,conditions,Kd
CC(=O)NC1C(O)CC(OC(CO)C(O)C2OC(OC3C(O)C(CO)OC(OC4C(CO)OC(Oc5ccc(N)cc5)C(O)C4O)C3O)(C(=O)O)CC(O)C2NC(C)=O)(C(=O)O)OC1C(O)C(O)COC(C)=O (centres unmarked),"Spike glycoprotein, D1 domain (S, Human coronavirus HKU1, UniProt Q5MQD0)",surface plasmon resonance,PBS,,5.1 ± 0.3 µM
Nc1ncnc2c1ncn2[C@@H]1O[C@H](COP(=O)(O)OP(=O)(O)O)[C@@H](O)[C@H]1O,"GUK1, part: GMP-bound (Homo sapiens, UniProt Q16774)","binding, ITC",,with: ATPγS and GMP 0.5 mM,13.9 µM and 17.3 µM and 11.8 µM
Cc1sc2ncn(CC(=O)O)c(=O)c2c1C,USP33 ZnF-UBD domain,,,,> 1000 µM
